# Measurements pooled from the literature.
SMILES,test,test system,setting,how to read,quantity,value
O=C(NO)c1ccc(CN(c2cnccn2)c2cnccn2)cc1,refers to: urinary tract infection,human,"oral, dose not given, all dose cohorts, sample B patients",,patients with adverse event,20%
CCn1cc(C(=O)N2CCOCC2)c(=O)c2cc(NC3Cc4ccccc4C3)cnc21,,"human, GAD, PTSD or social anxiety disorder","dose not given, TEAE Nausea, pooled phase trials",,patients with adverse event,6%
CNC(=O)c1ccc(-c2cnc3ncc(Cc4ccc5ncccc5c4)n3n2)cc1F,refers to: blood creatinine increased,"human, expansion cohort, other tumours","oral, 600 mg twice daily (RP2D), all grades, any causality, CTCAE v4.0",,patients with adverse event,11%
Cn1cnc2ccc(Nc3c(F)ccc(NS(=O)(=O)N4CC(F)C4)c3Cl)c(Cl)c2c1=O,refers to: fatigue grade ≥3,human patients,"dose not given, monotherapy trial",relative to: patients,patients with fatigue,0%
Cc1cc(C)c(CNC(=O)c2cc(Cl)c3c(c2C)O[C@@](C)([C@H]2CC[C@H](N(C)C)CC2)O3)c(=O)[nH]1,refers to: Hypophosphatemia,human patients,"oral, 200 mg once daily, 1 day onset day 14",,patients with grade ≥3 TEAE,0%
CCOc1c([C@H](C)n2nc(C)c3c(N)ncnc32)cc(Cl)c(F)c1[C@@H]1CNC(=O)C1,,human B-cell malignancy patients,"oral, 30 mg once daily",,patients with ΔQTcF 30-60 ms,3.8%
Cc1ccc(C(=O)N(CCCN)C(c2nc3snc(C)c3c(=O)n2Cc2ccccc2)C(C)C)cc1 (stereo not shown),,human patients,"intravenous, 7 mg/day",,patients with CTCAE grade ≥3 events,50%
CNCc1ccc(-c2[nH]c3cc(F)cc4c3c2CCNC4=O)cc1,refers to: Vomiting,human patients,"oral, 600 mg twice daily, grade 3",,patients with adverse event,3.8%
O=C(Nc1ccc(OC(F)(F)Cl)cc1)c1cnc(N2CC[C@@H](O)C2)c(-c2ccn[nH]2)c1,"refers to: Lipase increase, grade ≥3","human patients, dose-finding study","oral, sample D of sample B patients",,patients with event,18.2%
CNC(=O)c1cc(Oc2ccc(NC(=O)Nc3cc(C(C)(C)C)nn3-c3ccc4ncccc4c3)c(F)c2)ccn1,refers to: worst grade 3,human,"oral, dose not given, cycles 1 and 2, Medium AUC(0-4 h) subgroup",,patients with nervous system disorder AE,7%

# A few entries again:
SMILES,test,test system,setting,how to read,quantity,value
CNC(=O)c1cc(Oc2ccc(NC(=O)Nc3cc(C(C)(C)C)nn3-c3ccc4ncccc4c3)c(F)c2)ccn1,refers to: worst grade 3,human,"oral, dose not given, cycles 1 and 2, Medium AUC(0-4 h) subgroup",,patients with nervous system disorder AE,7%
